Measurements pooled from the literature.
A part holds a random share of what one study measured. Positions count from the first letter of the parent shown.

Series 1 — method: protein binding microarray; form: double-stranded DNA, one strand shown; sample: in vitro; tested at: not given; reference: not given; reading: higher = stronger binding; quantity: E-score
Target: Histone acetyltransferase KAT6A, both winged helices, GST fusion (KAT6A, Homo sapiens, UniProt Q92794, residues 1-181)
Setting: 8-mer, flanks averaged, mean of 2 arrays, mostly near background
Residues (chain): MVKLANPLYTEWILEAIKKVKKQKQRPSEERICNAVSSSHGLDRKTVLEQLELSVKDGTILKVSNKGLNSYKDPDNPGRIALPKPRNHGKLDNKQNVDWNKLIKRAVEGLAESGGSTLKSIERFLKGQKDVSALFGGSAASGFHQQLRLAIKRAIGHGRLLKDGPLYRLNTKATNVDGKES
CGAGGGCA: -0.0208
TCCCCTAA: -0.156
CCCGTGCA: 0.132
CATGATTC: -0.0475
ATAATATG: 0.01
CCCGGGGA: 0.201
ATGAAATA: -0.0553
ACATCTCG: -0.0819
ATGACATA: -0.156
CCCTTCAC: -0.145
AAGGTATA: -0.0871
GGGACACA: -0.209
ATGTCCGG: 0.152
GCTTACTA: 0.0371
AAATAGAT: -0.0826
ATCTTCCG: 0.22
ACCGGCAT: 0.276
CAGGCGAA: -0.146
AGGCATCA: -0.187
CGATACGA: -0.11
AAGGGATC: -0.123
GGAGTTAA: -0.0157
CGACATAG: -0.0526
TGTAGGAA: -0.112
TTATCCAA: -0.0393

Series 2 — target: CCND3, cyclin fold, Cln2 fusion (human); method: yeast growth competition, sequencing; sample: yeast; setting: weak parent motif; reference: not given; reading: higher = stronger binding; quantity: normalised enrichment score
Starting sequence: RBL1 docking peptide (human); GSAKRRLFGEDPP
R5N: 0.12
G1I: 0.219
P13D: 0.173
E10D: 0.143
G9T: 0.101
G1S: 0.212
P12S: 0.2
S2L: 0.159
P12W: 0.119
R5Y: 0.125
F8P: 0.188
E10C: 0.14
R6C: 0.117
A3K: 0.25
G1F: 0.214
A3R: 0.108
R6S: 0.149

Series 3 — method: universal PBM; form: double-stranded DNA, one strand shown; sample: in vitro; tested at: 600 nM; reading: higher = stronger binding; quantity: E-score
Target: Sal-like protein 4, full length isoform A (SALL4, Homo sapiens, UniProt Q9UJQ4, residues 1-1053)
UniProt Q9UJQ4, sequence (whole entry, looked up): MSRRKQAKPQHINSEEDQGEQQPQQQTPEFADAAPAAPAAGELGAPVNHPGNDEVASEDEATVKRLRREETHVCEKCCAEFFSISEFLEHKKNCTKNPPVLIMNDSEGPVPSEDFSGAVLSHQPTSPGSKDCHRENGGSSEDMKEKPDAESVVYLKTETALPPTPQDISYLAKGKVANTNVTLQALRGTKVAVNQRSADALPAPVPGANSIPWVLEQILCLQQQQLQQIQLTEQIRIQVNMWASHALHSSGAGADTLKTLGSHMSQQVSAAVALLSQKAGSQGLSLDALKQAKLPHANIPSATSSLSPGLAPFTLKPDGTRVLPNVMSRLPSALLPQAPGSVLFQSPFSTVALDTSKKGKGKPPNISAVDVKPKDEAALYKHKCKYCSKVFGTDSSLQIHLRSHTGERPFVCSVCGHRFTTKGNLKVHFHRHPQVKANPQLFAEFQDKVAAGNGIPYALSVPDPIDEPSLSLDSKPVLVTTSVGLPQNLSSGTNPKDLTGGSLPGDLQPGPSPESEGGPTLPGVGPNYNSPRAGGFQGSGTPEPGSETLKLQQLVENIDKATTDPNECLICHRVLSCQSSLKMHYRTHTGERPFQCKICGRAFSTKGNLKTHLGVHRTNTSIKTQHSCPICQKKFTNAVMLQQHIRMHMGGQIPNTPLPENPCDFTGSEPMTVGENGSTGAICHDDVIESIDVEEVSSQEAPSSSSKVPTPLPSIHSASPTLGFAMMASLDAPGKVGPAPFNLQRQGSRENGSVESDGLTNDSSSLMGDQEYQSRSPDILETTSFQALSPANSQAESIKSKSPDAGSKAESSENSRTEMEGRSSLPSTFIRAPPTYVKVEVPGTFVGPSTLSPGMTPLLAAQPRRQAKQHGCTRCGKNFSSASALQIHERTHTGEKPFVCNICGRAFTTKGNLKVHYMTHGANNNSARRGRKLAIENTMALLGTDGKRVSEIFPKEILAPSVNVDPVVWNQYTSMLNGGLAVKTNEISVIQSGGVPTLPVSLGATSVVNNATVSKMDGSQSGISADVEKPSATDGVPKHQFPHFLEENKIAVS
Setting: 8-mer, flanks averaged, mean of replicates
AACTAGGG: -0.0458
ACAAAAGC: 0.093
GCTTACGA: 0.0519
TCATGACA: 0.0911
CGATATAG: 0.23
AAGCTCCA: -0.0815
CGCTTAGC: -0.366
CGGTGGAC: -0.215
AAAAAGGC: 0.14
AGAGGGAG: -0.112
CCCAAGTC: -0.212
AGCTTGTA: 0.0532
ACATTCCA: 0.0827
GAAGTCGC: -0.229
CGTCCTAC: -0.186
CGTTGCAA: -0.134
TAGTGAGA: 0.0286
ACTCACTA: 0.0888
CACGGTTA: 0.158
GATTCGAC: -0.0938
AATATGGC: 0.197
ATAAGGTA: 0.155

Single results of other studies
PhoQ, residues 284 288 289 292 302 303 SSYNSA
fold induction (PhoP, residues 12 14 15 18 19 LHSVQ (Escherichia coli, UniProt P23836); Sort-seq, measured: YFP reporter; E. coli; PhoQ-PhoP variant library, with: 10 µM Mg2+; reference: high Mg2+ state, higher = stronger signaling): 1.05

Repeated from above (series 2):
E10C: 0.14
P13D: 0.173
R5Y: 0.125
G1S: 0.212
G1F: 0.214
A3K: 0.25
G1I: 0.219
R5N: 0.12
A3R: 0.108
S2L: 0.159
P12S: 0.2
